Measured values collected from several papers.
Parts stem from different laboratories: compare values within a part only. Changes are numbered by the printed parent chain.

Sample 1
Target: CCND3, cyclin fold, Cln2 fusion (human)
Method: yeast growth competition, sequencing
Matrix: yeast
Setting: weak parent motif
Baseline: not given
Direction: higher = stronger binding
Measurement: normalised enrichment score
Starting sequence: E2F3 docking peptide (human); PPAKRRLELGESG
PPAKKRLEFGESG [R5K L9F]: 0.426
PPAKRRLEAGESG [L9A]: 0.196
PAAKRRLELGESG [P2A]: 0.0909
PPAKRRLELGASG [E11A]: 0.213
PPAKARAELGESG [R5A L7A]: 0.0711
PPAKRRLELAESG [G10A]: 0.164
PPAKRALELGESG [R6A]: 0.169
PPAKKRLELGESG [R5K]: -0.432
PPAKRRLELGESA [G13A]: 0.0958

Sample 2
Target: Sal-like protein 4, full length isoform B (SALL4, Homo sapiens, UniProt Q9UJQ4-2, residues 1-616)
Method: universal PBM
Form: double-stranded DNA, one strand shown
Matrix: in vitro
Tested at: not given
Setting: 8-mer, flanks averaged, mean of replicates
Direction: higher = stronger binding
Measurement: E-score
Residues (chain): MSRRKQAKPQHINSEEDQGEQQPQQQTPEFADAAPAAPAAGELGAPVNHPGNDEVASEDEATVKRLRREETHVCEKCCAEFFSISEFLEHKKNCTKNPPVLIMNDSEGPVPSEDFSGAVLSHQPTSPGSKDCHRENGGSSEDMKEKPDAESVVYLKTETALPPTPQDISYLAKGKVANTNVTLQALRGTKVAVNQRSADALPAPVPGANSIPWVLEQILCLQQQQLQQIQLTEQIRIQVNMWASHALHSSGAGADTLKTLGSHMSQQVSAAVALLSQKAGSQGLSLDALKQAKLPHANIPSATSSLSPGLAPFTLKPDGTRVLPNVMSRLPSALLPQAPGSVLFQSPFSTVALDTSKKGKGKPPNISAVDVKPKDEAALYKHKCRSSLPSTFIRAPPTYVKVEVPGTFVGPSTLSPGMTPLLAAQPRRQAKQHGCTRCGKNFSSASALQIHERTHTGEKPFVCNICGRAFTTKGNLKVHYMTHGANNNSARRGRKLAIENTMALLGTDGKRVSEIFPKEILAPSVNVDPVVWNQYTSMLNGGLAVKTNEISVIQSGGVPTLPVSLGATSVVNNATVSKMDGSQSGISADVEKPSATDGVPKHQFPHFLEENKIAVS
GAGGGCGA: -0.241
GTCGGCAC: -0.126
TGTGACAA: -0.0115
CGAAGAAG: -0.0648
CCAGTGAC: -0.217
ACATTGGC: 0.0508
CGCGCTGA: -0.379
CAACCACG: -0.118
TAGACAAA: 0.156
TACCGGCA: -0.123
GCACGCCA: -0.294
GATCATCC: -0.0788
GAATTTGA: 0.0823
AATACATT: 0.302
GGACTTGA: -0.148
CCGTAACG: -0.249
TCGGAACA: -0.0276

Sample 3
Target: Centromere-binding protein 1, full length, His-tagged (CBF1, Saccharomyces cerevisiae, UniProt P17106, residues 1-351)
Sequence of UniProt P17106 (whole entry, looked up): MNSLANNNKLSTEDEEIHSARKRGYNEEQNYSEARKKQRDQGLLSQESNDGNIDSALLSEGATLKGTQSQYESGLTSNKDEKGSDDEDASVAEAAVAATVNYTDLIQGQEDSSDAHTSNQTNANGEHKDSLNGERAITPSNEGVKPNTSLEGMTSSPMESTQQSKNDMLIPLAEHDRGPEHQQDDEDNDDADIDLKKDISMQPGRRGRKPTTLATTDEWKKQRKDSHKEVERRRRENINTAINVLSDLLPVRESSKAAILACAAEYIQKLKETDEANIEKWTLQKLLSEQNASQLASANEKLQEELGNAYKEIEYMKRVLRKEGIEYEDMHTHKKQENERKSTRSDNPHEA
Method: competition protein-binding microarray
Form: double-stranded DNA, one strand shown
Matrix: in vitro
Tested at: 2 µM
Setting: whole 60-bp probe, lowest competitor level
Added: Pho4 competitor, 0.05 µM
Direction: higher = stronger binding
Measurement: fluorescence intensity
All sequences stand within: … GTCTTGATTCGCTTGACGCTGCTG
TTTCCTCTCCTTCTCTGCGTGCTTTCAAATCTAATT: 63.6 a.u.
AATGTCAGTATTTATAGCGTGATGGTTCATTACCCG: 134 a.u.
TTGTTCCGCGGAAAGCACGTGAGCCTAATCCACTCG: 2150 a.u.
CAGGAACCCATAAGTCAGCTGAGCCTGTGTCTAACA: 132 a.u.
GTCTTGTCTCATTGAACCGTGGGTGTCCCCACTTCA: 72 a.u.
TCAGAGGTATTCTCTCATGTGGTGAAGTCCATCAAT: 71.6 a.u.
CTAACGAAGGTTTGTCATGTGGGTGACAAGCCAAGT: 178 a.u.
GTCTTGTCTCATTTTCACGTGAAGTTCCCCACTTCA: 582 a.u.
AAATTACTAAGTTGTGGAGTGGGTGACGCCGTATGA: 59.3 a.u.
TTTCAAAAATTTCTTAACGTGGGTATTCTTCTTCCT: 81.8 a.u.
TGGCAATGGCCACTCACCGTGCCAGGCCTGCAAGTC: 78.1 a.u.
AGAAATGTCCCGGAAAACGTGGGTATGCGGTGAGGA: 92.5 a.u.
GTTTCTTCCTCTGGATACGTGGGACAGCTTGATGCT: 69.1 a.u.
TGCGCAACAACTTGTACAGTGGGTGTATGTCTAGAA: 70.4 a.u.
AAAGCGGTAATTTGGGACGTGGGTGCAGATATCTAT: 62.3 a.u.
CGCTCGCCTCATACCCACGGGAATAAGGCAGCCGAC: 57.7 a.u.
AAATTACTAAGTTGTCCGGTGGGTGACGCCGTATGA: 60.7 a.u.
ATTGCATTCTTAAAACACGTGCTTTACCAGTGGGAA: 2520 a.u.
TCCACCCATTGCTGCCGCGTGGACGCAGAATTTCCA: 76.1 a.u.
GAAAGCATATCATATCACATGTACAGATTGAGCATA: 1100 a.u.
GTATTGGGGGCTCGGCACGGCGGCTTTAGAACGGCT: 86.6 a.u.
CTAACGAAGGTTTGAACAGTGGGTGACAAGCCAAGT: 65.7 a.u.
CCTTTGTCTGCTGTGTATGTGATATGGAAAACTAAC: 95.9 a.u.
CTTGTCATCTCTATTCACATGGGGTGGTATCTGTAT: 107 a.u.

Sample 4
Target: RNA binding protein fox-1 homolog 2, RRM domain, GST-SBP tag (RBFOX2, Homo sapiens, UniProt O43251-10, residues 100-194)
Method: RNA Bind-n-Seq
Form: RNA
Matrix: in vitro
Tested at: 365 nM
Setting: natural RNA segment, single round, ends assumed
Baseline: no-protein control
Direction: higher = stronger binding
Measurement: RBNS enrichment (R)
All sequences stand within: GGGAGUUCUACAGUCCGACGAUC … UGGAAUUCUCGGGUGCCAA
Construct (chain): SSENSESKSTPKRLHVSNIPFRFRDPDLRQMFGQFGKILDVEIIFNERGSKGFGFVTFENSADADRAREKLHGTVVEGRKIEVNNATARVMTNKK
AGUGAUUUUCCAGAGUGCUCGAUACUGUUAAUUACAUCUCCAUUAGGGCUGAAAAGAAUGACCUACGUUUCUGUAUACAGCUGUGUUGCUUUUGAUGUUGUGUUACUGUA: 3.21
AAACCUAAUUAACUAAAGCAUUUAAGGCACUAUUUAUUUUAGAAUCAUGCUUUUGAAGAGCAUCAGUGAUUACUUAGGGUGUAAUAUGUAAAGAUCAGACAUCUCCAAAA: 0.606
CAUUGAUGUCUAAGAGGGGCCGUGGUAAUAGAUUGCAUCUGCCCUGUGCAUGCGCAUGUUUAACCACAGGCCAGAGAACUCAAUUCUGAUGUCGUAAGUUCUCUGUAAGU: 0.817
UUUAAAAAACAAACCUGGCUCUUACCUUUGAUCUUUUCUUCCCCAGAAAUAGUAAACUUGCAGCUGCCCCUAAUGCAGCAUAUUUUUCUUACCAAAGGAGUCUUCAGCCC: 0.669
CACAACAUGUGCCUUGCUCUCCCGAGGACAAGUAUUAACUUUUAAAUAAUAUCCGCGCACACAGACGCAUGCCCUGCACGCAUAGUUACAAACAGACAAAUGAUUACAUG: 10.9
GUGGUUUCAAAAUCUCUGGCACCAUCUUGACCUCUUGGCUCUCUCUGCACUUUGCCCCCUGUCUCAAAAAUGUCCCUCAUGUCCAUUUCCUGUCCAGGAGACUCAUGAGG: 0.372
AACCUGUGUUGUAUUUUUUCUGAGAUGUUUUGCUUUAAGAGAUACUUUUUGCUCAGUUUUUAUAUGCCAGAUACAGAGAAUUUGUAGCGGUUAUUUUUGUAUGAUCUAGU: 1.29
AGAUGUUAUUACUGUACUUUCCCCAAAUUCUGCUCCUGUACUUGCAAACUGAAGGUAACUAUACCUAGACUUAAAUCCUAAGGAAGCAAGUUACCUUCUGGGCAAAGGCU: 0.225
CUUUGAAAAUCCCCAAUUUGGUUCUGCUUUUUGACCUCUCUCUACCUUUUCAGGGUAAUCUUUGUGGCACAAACGAUAGCAUUUCCAAGCUUUAGAGUUUUCUGAAUUCC: 0.308
AGGGUAUCUGUUUACCUUUAAAAUGAUAAGUCUCACUCAAGAUUUUUUAUGUAUGUAUAAAUAUUUUGGUGUGCUACAAAAGCCUUUGCAAAUUAUCAGUAGUAGUUUUU: 0.625
GAUUCAGGAAAGAAUGUUACCAGCUCAAAUUCCGAGGAUUUUUUUUUCCACAGCAAAGAAUAUUUGAUAAUGGUUGCACUUAUCUUCAGUACAGGCUAGAAAAGAGUUCU: 3.05
AAAUAAUCUAUUCGAAGUCCAAACCAAACACAAAGCCUGUGAUAUUUUAGGUUAUUAAGGUAACUGCUAAUGAAGGAUUUUAAAAAGUGUCCUCAAAAAGGACUUAGCCC: 0.561

Sample 5
Target: TAR DNA-binding protein 43, full length, His tag (TARDBP, Homo sapiens, UniProt Q13148, residues 1-414)
Method: RNA Bind-n-Seq
Form: RNA
Matrix: in vitro
Tested at: 20 nM
Setting: 6-mer, flanks averaged, single round
Added: 150 mM LiCl
Baseline: input library
Direction: higher = stronger binding
Measurement: 6-mer enrichment (R)
ACCUCA: 0.863
AGCUAC: 0.835
UAGGAC: 0.938
CAGGUC: 0.865
UUUGCU: 1.15
UGUGGG: 1.64
AGUGCU: 0.967
CAUAUG: 0.911
AGACGC: 0.86
CGUUAA: 0.85
UAUUGG: 1.1
GUACAA: 0.855
AGAUCA: 0.818
ACCGCA: 0.88
UACGUC: 0.899
CAAUAA: 1.12

Repeated from above (sample 3):
AATGTCAGTATTTATAGCGTGATGGTTCATTACCCG: 134 a.u.
GTCTTGTCTCATTTTCACGTGAAGTTCCCCACTTCA: 582 a.u.
CTAACGAAGGTTTGAACAGTGGGTGACAAGCCAAGT: 65.7 a.u.
TTGTTCCGCGGAAAGCACGTGAGCCTAATCCACTCG: 2150 a.u.
AGAAATGTCCCGGAAAACGTGGGTATGCGGTGAGGA: 92.5 a.u.
TTTCCTCTCCTTCTCTGCGTGCTTTCAAATCTAATT: 63.6 a.u.
